Assay results collected from several papers.
Protocols differ between the studies behind these lines. Several values in a cell are separate wells, animals, samples, runs or records. ± gives the spread as reported.

| SMILES | test | test system | setting | how to read | quantity | result |
| --- | --- | --- | --- | --- | --- | --- |
| c1ccc2c(c1)c1cccc3ccc4cccc2c4c31 | – | polyethylene-water partitioning | PAH compilation | baseline: maximum over minimum K | literature range factor | 10 |
| O=C(c1cccnc1-c1ccncc1)N1CCC(O)(Cc2ccccc2)CC1 | – | healthy Japanese adults, plasma | oral, 200 mg single dose | – | Cmax/dose | 4.25 ng/mL/mg |
| CC(C)NCCCC[C@@H]1NC(=O)[C@H](Cc2ccc(O)cc2)NC(=O)[C@H](Cc2ccccc2)NC(=O)CC[C@H](C(=O)N[C@@H](CCCCNC(C)C)C(=O)N[C@@H](CCCCNC(=O)[C@H](CCC(=O)O)NC(=O)[C@H](CCC(=O)O)NC(=O)[C@H](CCC(=O)O)NC(=O)CN2CCN(CC(=O)O)CCN(CC(=O)O)CCN(CC(=O)O)CC2)C(N)=O)NC(=O)CNC(=O)[C@H](Cc2ccc3ccccc3c2)NC(=O)[C@@H](CCCNC(=N)N)NC1=O [gallium-68 labelled] | – | mouse with JeKo-1 xenograft, spleen | intravenous, 1 h | – | tissue uptake | 0.59 %ID/g |
| C=CC(=O)NC1CCN(c2ncc3ncnc(Nc4ccc(Oc5ccc6c(c5)ncn6C)c(C)c4)c3n2)CC1 | item: total radioactivity | healthy male human, whole blood and plasma | oral, 60 mg, 6 h, geometric mean | – | blood-to-plasma ratio | 0.802 |
| OCC1=C[C@@H](O)[C@@H]2C=CO[C@@H](O[C@@H]3O[C@H](CO)[C@@H](O)[C@H](O)[C@H]3O)[C@H]12 | post-procedure stability | rat plasma | 200 ng/mL, 3 h, room temperature | – | accuracy | 107% |
| CCN1CCN(Cc2ccc(Nc3ncc(F)c(-c4cc(F)c5nc6n(c5c4)[C@H](C)CCC6)n3)nc2)CC1 | – | human, plasma | 100 mg multiple dosing, mean | – | CL/F | 38.4 L/h |
| COc1ccc([C@@H](O)c2cc(-c3ncnc4cc(N5CCOCC5)ccc34)c(F)cc2Cl)nn1 | – | locally advanced rectal cancer patients | 150 mg, with: capecitabine and radiotherapy | – | drug-related gastrointestinal AE | 67% |
| O=C(O)CCC(=O)O.[2H]C([2H])([2H])Oc1cc(C)c2[nH]ccc2c1CN1CC[C@@H](C2CC2)C[C@H]1c1ccc(C(=O)O)cc1 | multiple ascending dose | healthy Chinese subjects | 200 mg once daily | – | subjects with increased creatinine TEAE | 0% |
| CC(C)(Sc1ccncc1-c1ccc(C#N)c2ccccc12)C(=O)O | – | human, urine | oral, 15 mg, with: febuxostat 0 mg | – | amount excreted in urine (0-24 h) | 269 µg |
| CCn1c(=O)c(-c2cc(NC(=O)Nc3ccccc3)c(F)cc2Br)cc2cnc(NC)cc21 | item: investigations | human, severe hepatic impairment | oral, 50 mg single dose | – | participants with grade ≥ 3 TEAE | 25% |
| O=C(O)CN1Cc2cccc(n2)CN(CC(=O)O)Cc2cccc(n2)C1 | differential pulse voltammetry | – | – | baseline: Ag/AgCl | Mn(II)/Mn(III) half-wave potential | 0.772 V |
| Cc1c(-c2ccc(N3CCc4cccc(C(=O)Nc5nc6ccccc6s5)c4C3)nc2C(=O)O)cnn1CC12CC3(C)CC(C)(C1)CC(OCCNCC[C@H](O)CO)(C3)C2 | – | anaesthetised male beagle dogs | intravenous infusion, 0.3 mg/kg/min, 120 min | baseline: vehicle | cardiac output change | -45% |
| CC(C)C[C@H](NC(=O)[C@@H](Cc1c[nH]c2ccccc12)NC(=O)[C@H](Cc1ccc(O)cc1)NC(=O)[C@H](CO)NC(=O)[C@H](Cc1c[nH]c2ccccc12)NC(=O)[C@H](Cc1c[nH]cn1)NC(=O)[C@@H]1CCC(=O)N1)C(=O)N[C@@H](CCCNC(=N)N)C(=O)N1CCC[C@H]1C(=O)NCC(N)=O | – | Chinese CPP children, girls | intramuscular, 22.5 mg, 12 months, day 1, month 6 | – | patients, drug-related reproductive TEAEs | 3.2% |
| CCc1cc(C(=O)NC)c2nccc(N3CCc4c(cc(Cn5ccnc5)cc4-c4cn(C)nc4C(F)(F)F)C3=O)c2c1 | – | Sprague Dawley rats | oral, 50 mg/kg once daily, 7 days | – | serum HDL level | 1.3 ± 0.05 mmol/L |
| CCOc1c([C@H](C)n2nc(C)c3c(N)ncnc32)cc(Cl)c(F)c1[C@@H]1CNC(=O)C1 | item: QTcF ≤ 450 ms | previously treated B-cell malignancy | oral, dose not given, baseline QTcF ≤450 ms, all doses | – | share of ECG observations | 97.2% |
| Cl.[2H]C([2H])([2H])CC(=O)c1cnc(NC(=O)C2CC2)cc1Nc1cccc(-c2ncn(C([2H])([2H])[2H])n2)c1OC | – | human, fasted, multiple dose | oral, 20 mg twice daily, tablet, day 14, geometric mean | – | Vss/F | 144 L |
| C=C[C@@](C)(/C=C/c1ccc(O)cc1)CCC=C(C)C | three freeze-thaw cycles | rat plasma | 200 ng/mL, -70 °C freeze | – | accuracy | 84.3% |
| Cc1cc(NC2CCN(C(=O)OC3CCN(C(=O)/C=C/CN(C)C)C3)CC2)n2ncc(C(C)C)c2n1 (stereo not drawn) | – | patients with advanced solid tumours | dose not given, QD arm, grade 3 or higher | – | patients with Hyponatremia | 0% |
| Cc1ccc([C@@H]2O[C@H](CO)[C@@H](O)[C@H](O)[C@H]2O)cc1Cc1ccc(-c2ccc(F)cc2)s1 | item: inorganic phosphorus | Japanese type 2 diabetes patients | 100 mg, day 1, 24 h urine collection | baseline: baseline | urinary phosphate excretion change | -240 mg |
| COC(=O)C1=CO[C@@H](O[C@@H]2O[C@H](CO)[C@@H](O)[C@H](O)[C@H]2O)[C@@H]2C(CO)=CC[C@H]12 | post-procedure stability | rat plasma | 200 ng/mL, 1 h, room temperature | – | accuracy | 104% |
| COc1cccc(OC)c1-c1cc(C(=O)NC2(C(=O)O)C3CC4CC(C3)CC2C4)nn1-c1ccc(C(=O)N(C)CCCN(C)CCCN(C)C(=O)CN2CCN(CC(=O)[O-])CCN(CC(=O)[O-])CCN(CC(=O)[O-])CC2)cc1C(C)C.[177Lu+3] (stereo not drawn) | – | mouse HT-29 xenograft | 168 h, biodistribution | baseline: tumour over pancreas | tumour-to-pancreas ratio | 9.63 |
| N#Cc1ccc2c(c1)[C@H]1CCCN(C(=O)c3ccc4[nH]cnc4c3)[C@H]1C2 | – | human | 80 mg, day 7 | – | maximum ACTH level | 13 pmol/L |
| FC(F)(F)c1ccc(CNc2ccc(Cc3c[nH]c4ncc(Cl)cc34)cn2)cn1 | – | patients with advanced solid tumours | oral, 1000 mg/day, non-TGCT cohort, grade ≥3 | – | cognitive disorder incidence | 0% |
| CN(C)C(=N)N=C(N)N | item: diarrhoea | healthy men | oral, dose not given, 8 days, treatment-emergent, crossover trial | – | subjects with adverse event | 4.5% |
| O=C(OC(C(F)(F)F)C(F)(F)F)N1CCN(Cc2cccc(Oc3ccccc3)c2)CC1 | PET blocking study | rhesus monkey, brain CB | 0.03 mg/kg, compound pretreatment, with: [18F]T-401 tracer | – | Ktrans | 0.003 min⁻¹ |
| O=C(Nc1cnccc1Cl)N1CCN(Cc2ccc3c(c2)OC(F)(F)O3)CC1 | item: Ecchymosis | human healthy young women | 100 mg, multiple dose | – | adverse event incidence | 0% |
| CNC(=O)c1ccc(-c2cnc3ncc(Cc4ccc5ncccc5c4)n3n2)cc1F | item: Dyspnea, all grades | gastric cancer patients | oral, 600 mg twice daily, expansion cohort, any causality | – | patients with adverse event | 11% |

| SMILES | test | test system | setting | how to read | quantity | result |
| --- | --- | --- | --- | --- | --- | --- |
| COc1nnc2ccc(N3CCC(c4ccc(OCCN5CCN(C)C(=O)[C@H]5C)cc4)CC3)nn12 | – | patients, plasma | oral, 30 mg once daily, multiple dose, monotherapy | – | AUC(0-t) | 0.651 µM·h |
| O=C(Nc1nc2cccc(-c3ccc(CN4CCS(=O)(=O)CC4)cc3)n2n1)C1CC1 | item: blood calcium increased | rheumatoid arthritis patients | oral, 200 mg once daily, 4 weeks, any relatedness | – | treatment-emergent adverse events | 0% |
| NC(=O)c1cc(Oc2ccc(NC(=O)Nc3ccc(Cl)c(C(F)(F)F)c3)c(F)c2)cc[n+]1[O-] | – | reconstituted solution | up to 24 h, 4 °C | baseline: initial concentration | autosampler stability | < 15% |
| COc1ccc2c(c1)CN(C(=O)CCN1CCC(Cc3ccccc3)CC1)CC[S@@+]2[O-] | – | beagle dog, female, plasma | intravenous, 8 mg/kg, day 1, 14-day toxicity study | – | unbound plasma concentration | 6490 nM |
| COc1cc2c3cc1Oc1c(OC)c(OC)cc4c1[C@@H](Cc1ccc(O)c(c1)Oc1ccc(cc1)C[C@@H]3N(C)CC2)N(C)CC4 | – | mouse plasma, K3EDTA | 1 h, 37 °C | – | remaining compound | 110% |
| CO[C@]1(C(=O)N[C@@H](C)c2ccc(-n3cc(F)cn3)nc2)CC[C@H](c2nc(C)cc(Nc3cc(C)[nH]n3)n2)CC1 | – | humans, urine and feces | oral, dose not given | baseline: dose | unrecovered radioactivity | ~21% and 21.4% |
| NC1(C(=O)N[C@@H](CCO)c2ccc(Cl)cc2)CCN(c2nc[nH]c3nccc2-3)CC1 | – | metastatic CRPC patients | dose not given, grade 3 to 4, treatment-related, all doses, with: enzalutamide 160 mg daily | – | incidence of Erythema | 0% |
| Cn1cc([C@H]2C[C@H]3CSC(N)=N[C@@]3(c3ccc(F)cc3F)CO2)cn1 | – | male 129/SVE mouse, brain | subcutaneous, 50 mg/kg, 9 h | – | brain concentration | 2470 nM |
| C[Si](C)(C)O[Si](C)(C)O[Si](C)(C)O[Si](C)(C)C | IVIVE from S9 | rainbow trout (Oncorhynchus mykiss) | – | – | whole-body biotransformation rate constant | 0.015 day⁻¹ and 0.017 day⁻¹ and 0.013 day⁻¹ |
| CCc1c(-c2ccccc2)c(-c2ccccc2)nn1-c1ccccc1-c1cccc(OCC(=O)O)c1 | – | male Sprague-Dawley rat, testis homogenate | oral, 10 mg/kg, 1 h | – | concentration | 36.7 ng/mL |
| CCO[C@H]1CCN(Cc2c(OC)cc(C)c3[nH]ccc23)[C@H](c2ccc(C(=O)O)cc2)C1 | – | PNH patients, active haemolysis | oral, 25 mg, treatment | – | incidence alkaline phosphatase increase | 0% |
| c1ccc(CN2CCCN3CCN(Cc4ccccc4)CCCN(CC2)Cc2cccc(n2)C3)cc1 | – | 5 M HCl | 90 °C | – | copper(II) complex dissociation half-life | 20.3 h |
| Cc1c(O)c(=O)ccn1C(C)C.Cl | shake-flask, item: iron(III) complex | 1-octanol/Tris buffer | pH 7.4, ligand:iron 10:1 | – | partition coefficient | 0.5 ± 0.06 |
| O=C1CCc2ccc(OCCCCN3CCN(c4cccc(Cl)c4Cl)CC3)cc2N1 | item: Xerostomia | genotyped patients, CYP2D6 poor metabolizers | dose not given, long-acting oral or depot | – | adverse event incidence | 11% |
| Cc1cc(-c2nccc3c2ccn3CC(=O)Nc2ccc(-c3cnccn3)cn2)ccn1 | – | human | 15 mg once daily, multiple ascending dose | – | subjects with Costochondritis adverse event | 11.1% |
| CC(C)(C(=O)N1CCOc2c(C#N)cncc2C1)C(F)F | item: Headache | human | oral, 10 mg once daily, 14 days, multiple ascending dose | – | subjects with adverse event | 25% |
| CN[C@@H]1COc2c(S(=O)(=O)NC(=O)Nc3c4c(cc5c3CCC5)CCC4)cnn2C1 | – | human, urine | oral, 900 mg, 0-48 h | – | renal clearance | 8.97 mL/min |
| CC(C)(C)c1ccc(O)c(CN(Cc2cc(C(C)(C)C)ccc2O)C2CCC(NC(N)=O)CC2)c1 (stereo not drawn) | – | human liver microsomes | 5 ng/mL, 3 months, 4 °C, refrigerator storage | – | recovery | 102 ± 3.11% |
| CC(=O)O[C@H]1C(=O)[C@@]2(C)[C@H]([C@H](OC(=O)c3ccccc3)[C@]3(O)C[C@H](OC(=O)[C@H](O)[C@@H](NC(=O)c4ccccc4)c4ccccc4)C(C)=C1C3(C)C)[C@]1(OC(C)=O)CO[C@@H]1C[C@@H]2O | item: neutropenia | patients with advanced solid tumours | intravenous, dose not given, grade 3 and 4, possibly related to drug | – | adverse event incidence | 22% |
| C=CCn1c(=O)c2cnc(Nc3ccc(N4CCN(C)CC4)cc3)nc2n1-c1cccc(C(C)(C)O)n1 | – | human | oral, 125 mg twice daily, cycle 1 day 17, with: durvalumab 1500 mg IV | geometric mean | Cmax | 660 nM |
| CNCCOC12CC3(C)CC(C)(CC(Cn4ncc(-c5ccc(N6CCc7cccc(C(=O)Nc8nc9ccccc9s8)c7C6)nc5C(=O)O)c4C)(C3)C1)C2 | – | anaesthetised male beagle dogs | intravenous bolus, 0.03 mg/kg, 135 min | baseline: baseline | cardiac output change | -67% |
| Cc1nc2cccc(OCC(C)(C)C(=O)NC(C)C)c2c(N)c1C(=O)O | – | male Swiss albino CD-1 mouse, bone marrow | oral, 1000 mg/kg, 36 h | – | PCE/NCE ratio | 0.85 |
| O=C(c1nc2n(n1)[C@H](c1ccccc1)C[C@@H]2F)C1CC1 | – | human | 150 mg single dose, mean | – | renal clearance | 0.178 mL/min |
| C[C@@H](c1ncncc1F)[C@](O)(Cn1cncn1)c1ccc(F)cc1F | item: decreased appetite | human | oral, 400 mg | – | drug-related TEAE incidence | 0% |
| COc1cc(C(=O)NC2CCN(C)CC2)c(F)cc1Nc1ncc(C(F)(F)F)c(Oc2cccc3c2C(=O)N(C)C3)n1 | – | human patients, plasma | oral, 300 mg once daily repeated, geometric mean | – | dose-normalised Cmax at steady state | 16.9 nmol/L per mg |
| CCCC(CCC)C(=O)Oc1cccc(C(O)CCN)c1.O=CO (stereo not drawn) | – | Abca4-/-Rdh8-/- mice, photic damage | oral, 20 mg/kg, 7 days, flash intensity 0.1 | – | ERG, scotopic, rod b-wave | 126 µV and 100 µV and 89.8 µV and 123 µV and 141 µV and 156 µV |
| N=C(N)NCCNC(=O)C1(Nc2ccccc2)CCN(Cc2ccccc2)CC1 | – | male Sprague-Dawley rats, plasma | intravenous, 2.5 mg/kg | – | volume of distribution | 1.2 ± 0.3 L |
